Results from different studies.
Each line is one published result; not all experiments were run side by side.

SMILES	target or system	test	system	conditions	endpoint	result
O=C(O)C[C@H](NC(=O)[C@H](CC(=O)O)NC(=O)[C@H](CC(=O)O)NC(=O)[C@H](CC(=O)O)NC(=O)[C@H](CC(=O)O)NC(=O)[C@H](CC(=O)O)NC(=O)[C@H](CC(=O)O)NC(=O)[C@H](CC(=O)O)NC(=O)[C@H](CC(=O)O)NC(=O)[C@H](CC(=O)O)NC(=O)[C@H](CC(=O)O)NC(=O)[C@H](CCCCNC(=O)c1ccc(C(=O)NCCOCCOB2BBBBBB3BBBB3B2)cc1)NC(=O)CN1CCN(CC(=O)O)CCN(CC(=O)O)CCN(CC(=O)O)CC1)C(=O)O [gallium-67 labelled]	–	–	ddY male mice, kidney	intravenous, 37 kBq, 1 h	tissue uptake	6.83 %ID/g
CC(C)C[C@@H]1NC(=O)[C@H](CC(C)C)NC(=O)[C@H](Cc2c[nH]c3ccccc23)NC(=O)[C@H](CO)NC(=O)[C@H](Cc2c[nH]c3ccccc23)NC(=O)[C@@H]2CCCN2C(=O)[C@H](CC(C)C)NC(=O)[C@H](Cc2c[nH]cn2)NC(=O)[C@@H]2CCCN2C(=O)[C@H](CC(N)=O)NC(=O)[C@H](C)NC(=O)[C@H](Cc2ccc(O)cc2)NC(=O)[C@H](CS)NC(=O)[C@H](CCCCNC(=O)CN2CCN(CC(=O)O)CCN(CC(=O)O)CCN(CC(=O)O)CC2)NC1=O [lutetium-177 labelled]	–	OLINDA dosimetry	BALB/c mice, heart	37 MBq, 7 days	total nuclear transformations	26.7 MBq-s
Cc1ccccc1NC(=O)Nc1ccc(CC(=O)N[C@@H](CCCCNC(=O)/C=C/c2cccnc2)C(=O)N[C@@H](CCCC(=O)O)C(=O)NC2(C(=O)NCCOCCOCCOCCOCC(=O)N[C@@H](CCCCNC(=S)Nc3ccc(CCCN(CCN4CCN(CP(=O)(O)O)CCN(CP(=O)(O)O)CC4)CC(=O)O)cc3)C(N)=O)CCCCC2)cc1 [gallium-68 labelled]	–	radio-HPLC	C57BL/6 mice, blood	30 min post-injection	free gallium-68	1.1%
C[C@@H](O)[C@H](NC(=O)[C@@H]1CSSC[C@H](NC(=O)[C@@H](Cc2ccccc2)NC(=O)CN2CCN(CC(=O)[O-])CCN(CC(=O)[O-])CCN(CC(=O)[O-])CC2)C(=O)N[C@@H](Cc2ccc(O)cc2)C(=O)N[C@H](Cc2c[nH]c3ccccc23)C(=O)N[C@@H](CCCCN)C(=O)N[C@@H]([C@@H](C)O)C(=O)N1)C(=O)O.[177Lu+3]	MEC1 treated with 100 µM zebularine	gamma counter	serum-free RPMI	30 min, 37 °C	uptake	0.842%
CC[C@H](C)[C@H](NC(=O)[C@H](Cc1ccccc1)NC(=O)[C@H](CCC(=O)O)NC(=O)[C@H](CCCNC(=N)N)NC(=O)[C@H](C)NC(=O)[C@H](C)NC(=O)[C@H](CCC(N)=O)NC(=O)[C@H](CCC(=O)O)NC(=O)[C@H](CCC(=O)O)NC(=O)[C@H](CC(C)C)NC(=O)[C@H](Cc1ccc(O)cc1)NC(=O)[C@H](CO)NC(=O)[C@H](CO)NC(=O)[C@@H](NC(=O)[C@H](CC(=O)O)NC(=O)[C@H](CO)NC(=O)[C@@H](NC(=O)[C@H](Cc1ccccc1)NC(=O)[C@@H](NC(=O)CNC(=O)[C@H](CCC(=O)O)NC(=O)[C@H](C)NC(=O)CCc1c[nH]cn1)[C@@H](C)O)[C@@H](C)O)C(C)C)C(=O)N[C@@H](C)C(=O)N[C@@H](Cc1c[nH]c2ccccc12)C(=O)N[C@@H](CC(C)C)C(=O)N[C@H](C(=O)N[C@@H](CCCNC(=N)N)C(=O)NCC(=O)N[C@@H](CCCNC(=N)N)C(=O)N[C@@H](CCCCNC(=O)COCCOCCNC(=O)COCCOCCNC(=O)CC[C@H](NC(=O)CCCCCCCCCCCCCCCCC(=O)O)C(=O)O)C(=O)NCC(=O)NCC(=O)N[C@@H](CO)C(=O)N[C@@H](CCCCNc1c(NCCCCCN(O)C(=O)CCC(=O)NCCCCCN(O)C(=O)CCC(=O)NCCCCCN(O)C(C)=O)c(=O)c1=O)C(=O)O)C(C)C [zirconium-89 labelled]	–	–	rat, heart	sc, 3 nmol/kg, 4 h, ex vivo	tissue uptake	0.2 %ID/g
C[C@@H](O)[C@@H](CO)NC(=O)[C@@H](CCCNC(=N)N)NC(=O)[C@@H]1CCCN1C(=O)[C@@H]1CSSC[C@H](NC(=O)[C@H](Cc2ccccc2)NC(=O)CN2CCN(CC(=O)O)CCN(CC(=O)O)CCN(CC(=O)O)CC2)C(=O)N[C@@H](Cc2ccc(O)cc2)C(=O)N[C@@H](Cc2ccccc2)C(=O)N[C@@H](CCC(N)=O)C(=O)N[C@@H](CC(N)=O)C(=O)N1 [gallium-68 labelled]	–	–	healthy Wistar rat, adrenals	intravenous, 8 MBq, 120 min, individual animals	tissue uptake	0.08 %ID/g
CC(C)C[C@H](NC(=O)C[C@H](O)[C@H](CC(C)C)NC(=O)[C@H](Cc1c[nH]cn1)NC(=O)CNC(=O)[C@@H](NC(=O)[C@H](C)NC(=O)[C@H](Cc1c[nH]c2ccccc12)NC(=O)[C@H](CCC(N)=O)NC(=O)[C@@H](Cc1ccccc1)NC(=O)CCNC(=O)CCSc1nnc(NCCC(=O)NCCC(=O)NCCCC[C@H](NC(=O)N[C@@H](CCC(=O)O)C(=O)O)C(=O)O)c2c1CCC1C(CC2)C1COC(=O)NCCNC(=O)CC[C@H](C(=O)O)N1CCN(CC(=O)O)CCN(CC(=O)O)CC1)C(C)C)C(N)=O (some centres unmarked) [gallium-68 labelled]	–	–	athymic NMRI nude mouse, lung	intravenous, 533 pmol, 2 h	tissue uptake	0.28 %ID/g
CCCCCCCCCC(=O)N[C@@H](Cc1c[nH]c2ccccc12)C(=O)N[C@H](CC(N)=O)C(=O)N[C@@H](CC(=O)O)C(=O)N[C@@H]1C(=O)NCC(=O)N[C@@H](CCCNC(=O)CCC(=O)N2Cc3ccccc3-c3c(nnn3CCC[C@H](NC(=O)CCCCC[N+]3=C(C=CC4=CC(=CC=C5N(C)c6ccccc6C5(C)C)CCC4)C(C)(C)c4ccccc43)C(=O)NCCCCNC(=O)CCC(=O)N3Cc4ccccc4-c4c(nnn4CCOCCOCCOCCNC(=O)CN4CCN(CC(=O)NCCNC(=O)c5cccc(O)c5O)CCN(CC(=O)NCCNC(=O)c5cccc(O)c5O)CCN(CC(=O)NCCNC(=O)c5cccc(O)c5O)CC4)-c4ccccc43)-c3ccccc32)C(=O)N[C@@H](CC(=O)O)C(=O)N[C@H](C)C(=O)N[C@@H](CC(=O)O)C(=O)NCC(=O)N[C@H](CO)C(=O)N[C@@H]([C@H](C)CC(=O)O)C(=O)N[C@@H](CC(=O)c2ccccc2N)C(=O)O[C@@H]1C	–	rapid equilibrium dialysis	human plasma	1 µM, 2 h, 37 °C	fraction unbound	0.503
